Measured values of several laboratories.
Each numbered part is a random draw from the data of one study; scales do not carry over between parts. “And” joins repeats or separate records; there may be more than shown.
UniProt Q13554, sequence (whole entry, looked up): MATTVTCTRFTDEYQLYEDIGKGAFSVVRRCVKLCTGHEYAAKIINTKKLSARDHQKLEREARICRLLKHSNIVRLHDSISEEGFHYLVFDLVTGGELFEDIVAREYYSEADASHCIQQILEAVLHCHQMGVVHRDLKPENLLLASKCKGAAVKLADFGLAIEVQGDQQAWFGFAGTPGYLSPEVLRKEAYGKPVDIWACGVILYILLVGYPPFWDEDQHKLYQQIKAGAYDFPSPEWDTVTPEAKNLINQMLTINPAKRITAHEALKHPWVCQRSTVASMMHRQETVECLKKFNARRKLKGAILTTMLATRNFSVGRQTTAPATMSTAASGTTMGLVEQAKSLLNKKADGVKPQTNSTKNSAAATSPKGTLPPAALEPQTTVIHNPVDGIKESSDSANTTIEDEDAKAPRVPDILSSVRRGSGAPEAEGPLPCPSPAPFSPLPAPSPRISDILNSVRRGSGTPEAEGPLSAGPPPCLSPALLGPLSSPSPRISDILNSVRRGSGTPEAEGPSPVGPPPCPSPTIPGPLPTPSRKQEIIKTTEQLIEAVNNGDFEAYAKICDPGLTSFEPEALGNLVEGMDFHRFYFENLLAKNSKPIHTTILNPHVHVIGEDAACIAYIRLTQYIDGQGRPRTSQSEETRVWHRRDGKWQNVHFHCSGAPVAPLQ
UniProt Q13043, sequence (whole entry, looked up): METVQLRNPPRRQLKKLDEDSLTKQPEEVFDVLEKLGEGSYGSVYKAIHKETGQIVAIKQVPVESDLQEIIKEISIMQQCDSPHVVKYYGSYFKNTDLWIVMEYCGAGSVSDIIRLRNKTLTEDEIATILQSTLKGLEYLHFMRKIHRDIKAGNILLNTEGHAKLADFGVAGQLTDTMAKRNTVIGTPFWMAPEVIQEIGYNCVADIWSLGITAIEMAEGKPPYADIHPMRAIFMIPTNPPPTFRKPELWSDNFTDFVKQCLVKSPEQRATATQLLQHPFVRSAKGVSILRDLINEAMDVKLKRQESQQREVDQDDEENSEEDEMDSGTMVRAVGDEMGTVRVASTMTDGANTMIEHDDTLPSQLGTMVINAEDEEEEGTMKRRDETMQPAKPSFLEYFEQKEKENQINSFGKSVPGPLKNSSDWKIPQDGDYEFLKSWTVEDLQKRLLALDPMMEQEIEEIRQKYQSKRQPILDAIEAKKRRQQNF
UniProt Q16644, sequence (whole entry, looked up): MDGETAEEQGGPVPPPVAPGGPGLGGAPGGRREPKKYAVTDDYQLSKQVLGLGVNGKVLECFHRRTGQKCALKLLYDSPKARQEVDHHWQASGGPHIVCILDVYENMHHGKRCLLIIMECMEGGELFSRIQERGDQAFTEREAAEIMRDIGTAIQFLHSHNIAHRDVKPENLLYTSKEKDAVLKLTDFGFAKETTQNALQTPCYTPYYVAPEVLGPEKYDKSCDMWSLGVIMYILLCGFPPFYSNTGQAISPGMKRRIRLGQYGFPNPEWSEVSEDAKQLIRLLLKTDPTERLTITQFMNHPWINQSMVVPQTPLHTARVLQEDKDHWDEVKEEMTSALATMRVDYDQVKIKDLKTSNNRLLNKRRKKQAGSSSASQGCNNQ
UniProt Q16620, sequence (whole entry, looked up): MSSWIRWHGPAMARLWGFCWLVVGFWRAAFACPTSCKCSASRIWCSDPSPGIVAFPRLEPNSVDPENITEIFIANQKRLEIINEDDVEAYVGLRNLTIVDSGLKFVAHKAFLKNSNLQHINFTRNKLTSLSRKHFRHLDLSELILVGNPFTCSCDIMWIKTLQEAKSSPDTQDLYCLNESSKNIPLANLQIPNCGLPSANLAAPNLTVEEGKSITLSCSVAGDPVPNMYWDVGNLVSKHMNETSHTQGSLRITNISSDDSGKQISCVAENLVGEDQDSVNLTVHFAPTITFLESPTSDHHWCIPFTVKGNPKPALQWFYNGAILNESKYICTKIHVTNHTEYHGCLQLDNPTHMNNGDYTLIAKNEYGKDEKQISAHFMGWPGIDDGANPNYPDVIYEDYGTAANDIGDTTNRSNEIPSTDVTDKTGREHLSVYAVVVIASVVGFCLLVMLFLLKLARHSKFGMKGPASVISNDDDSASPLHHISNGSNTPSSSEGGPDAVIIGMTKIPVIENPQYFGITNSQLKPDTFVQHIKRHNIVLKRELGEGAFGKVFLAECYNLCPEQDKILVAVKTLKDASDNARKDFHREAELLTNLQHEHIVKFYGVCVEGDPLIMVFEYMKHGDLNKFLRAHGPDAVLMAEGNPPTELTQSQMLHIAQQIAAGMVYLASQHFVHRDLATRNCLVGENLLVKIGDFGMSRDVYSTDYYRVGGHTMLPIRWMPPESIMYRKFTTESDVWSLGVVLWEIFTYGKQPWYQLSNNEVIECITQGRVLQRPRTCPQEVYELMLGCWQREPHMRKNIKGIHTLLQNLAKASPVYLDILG
UniProt P29597, sequence (whole entry, looked up): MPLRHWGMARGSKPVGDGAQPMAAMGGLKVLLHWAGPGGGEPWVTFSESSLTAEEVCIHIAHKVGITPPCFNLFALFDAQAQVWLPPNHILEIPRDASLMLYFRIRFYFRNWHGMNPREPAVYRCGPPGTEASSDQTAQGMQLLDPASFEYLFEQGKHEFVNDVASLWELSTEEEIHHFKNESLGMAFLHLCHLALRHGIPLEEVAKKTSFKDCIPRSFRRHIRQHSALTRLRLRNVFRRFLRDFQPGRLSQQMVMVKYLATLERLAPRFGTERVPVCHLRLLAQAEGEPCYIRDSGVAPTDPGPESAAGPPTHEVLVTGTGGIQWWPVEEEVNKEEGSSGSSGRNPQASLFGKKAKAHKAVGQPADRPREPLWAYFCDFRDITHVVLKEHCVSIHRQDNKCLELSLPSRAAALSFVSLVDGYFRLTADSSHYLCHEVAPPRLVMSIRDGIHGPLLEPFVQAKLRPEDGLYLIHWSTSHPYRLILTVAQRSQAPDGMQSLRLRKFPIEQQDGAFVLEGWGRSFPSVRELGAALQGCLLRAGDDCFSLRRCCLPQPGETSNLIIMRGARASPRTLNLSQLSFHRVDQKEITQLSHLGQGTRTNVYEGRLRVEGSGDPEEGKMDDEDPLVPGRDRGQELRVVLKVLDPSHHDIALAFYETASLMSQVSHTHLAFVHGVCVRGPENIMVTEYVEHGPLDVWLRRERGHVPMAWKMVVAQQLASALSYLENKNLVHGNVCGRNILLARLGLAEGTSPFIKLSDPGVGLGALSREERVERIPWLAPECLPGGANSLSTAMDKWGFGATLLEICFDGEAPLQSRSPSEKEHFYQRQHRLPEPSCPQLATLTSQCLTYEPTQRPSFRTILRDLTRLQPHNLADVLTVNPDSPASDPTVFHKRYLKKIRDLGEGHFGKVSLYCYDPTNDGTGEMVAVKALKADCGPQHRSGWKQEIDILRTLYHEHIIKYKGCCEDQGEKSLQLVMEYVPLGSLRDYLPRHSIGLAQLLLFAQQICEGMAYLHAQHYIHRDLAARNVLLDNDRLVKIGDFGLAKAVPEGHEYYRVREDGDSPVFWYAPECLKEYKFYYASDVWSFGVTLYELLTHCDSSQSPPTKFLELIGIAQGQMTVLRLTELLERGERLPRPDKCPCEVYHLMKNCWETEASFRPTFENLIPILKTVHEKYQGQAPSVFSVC

Study 1
SMILES: Cc1ncsc1-c1ccc(C(CO)NC(=O)C2CC(O)CN2C(=O)C(C(C)C)n2cc(-c3ccc(COc4c(-c5c(C)c(F)cc6[nH]ncc56)c(C5CC5)cc5c(N6CC7CC6CN7)nc(OC6CCOCC6)nc45)cc3)nn2)cc1 (stereo not shown)
Route: intravenous
Endpoint: concentration
male Balb/c nu/nu mouse (PK-59 xenograft), tumor; 10 mg/kg, 24 h: 172 ng/g
mouse, PK-59 xenograft, pancreas; 30 mg/kg, 48 h: 125 ng/g and 110 ng/g
male Balb/c nu/nu mouse, PK-59 xenograft, plasma; 30 mg/kg, 24 h: 50.1 ng/mL and 77.1 ng/mL
male Balb/c nu/nu mouse, PK-59 xenograft, pancreas; 10 mg/kg, 24 h: 80.7 ng/g and 58.1 ng/g
male Balb/c nu/nu mouse, PK-59 xenograft, tumor; 10 mg/kg, 24 h: 214 ng/g and 283 ng/g
mouse (PK-59 xenograft), plasma; 30 mg/kg, 48 h: 16.6 ng/mL and 14.2 ng/mL
mouse, PK-59 xenograft, pancreas; 10 mg/kg, 72 h: 20.9 ng/g and 9.23 ng/g and 15.6 ng/g
male Balb/c nu/nu mouse, PK-59 xenograft, pancreas; 10 mg/kg, 6 h: 239 ng/g and 174 ng/g

Study 2
Compound: C#Cc1cccc2cc(O)cc(-c3ncc4c(N5CC6CCC(C5)N6)nc(OCC56CCCN5CCC6)nc4c3F)c12
Target: GTPase KRas (KRAS, Homo sapiens, UniProt P01116, G12D)
Observed: binding
Method: NanoBRET
Cell line: HEK293 (live)
Reading: lower = stronger binding
Endpoint: target engagement
0.04576 µM: 11.3% and 12.2% and 12.4%
1 µM: 2e-15% and -0.243% and -1.25%
0.5229 µM: 3.29% and 3.87% and 4.93%

Study 3
Compound: CN(C1COC1)C(C)(C)/C=C(\C#N)C(=O)N1CCC[C@H]1Cn1nc(-c2ccc(Oc3ccccc3)cc2F)c2c(N)ncnc21
Endpoint: inhibition
MAP kinase-interacting serine/threonine-protein kinase 1 (MKNK1, Homo sapiens, UniProt Q9BUB5); kinase activity; 1 µM: 5%
Ephrin type-B receptor 1 (EPHB1, Homo sapiens, UniProt P54762); kinase activity; 0.1 µM: 1%
BDNF/NT-3 growth factors receptor (NTRK2, Homo sapiens, UniProt Q16620); kinase activity; 0.1 µM: 2%
Phosphorylase b kinase gamma catalytic chain, skeletal muscle/heart isoform (PHKG1, Homo sapiens, UniProt Q16816); kinase activity; 0.1 µM: 6%
Dual specificity tyrosine-phosphorylation-regulated kinase 1B (DYRK1B, Homo sapiens, UniProt Q9Y463); kinase activity; 0.1 µM: -6%
Calcium/calmodulin-dependent protein kinase type II subunit beta (CAMK2B, Homo sapiens, UniProt Q13554); kinase activity; 1 µM: 1%
Cyclin-dependent kinase 5 (CDK5, Homo sapiens, UniProt Q00535); kinase activity; 1 µM: -4%
Serine/threonine-protein kinase 4 (STK4, Homo sapiens, UniProt Q13043); kinase activity; 1 µM: 6%
MAP kinase-activated protein kinase 2 (MAPKAPK2, Homo sapiens, UniProt P49137); kinase activity; 0.1 µM: 7%
NDRG1; 1 µM, mean: -8%
MAP kinase-activated protein kinase 3 (MAPKAPK3, Homo sapiens, UniProt Q16644); kinase activity; 0.1 µM: 3%
Non-receptor tyrosine-protein kinase TYK2 (TYK2, Homo sapiens, UniProt P29597); kinase activity; 0.1 µM: -2%
Rho-associated protein kinase 2 (ROCK2, Homo sapiens, UniProt O75116); kinase activity; 1 µM: 1%
cAMP-dependent protein kinase catalytic subunit beta (PRKACB, Homo sapiens, UniProt P22694); kinase activity; 0.1 µM: 5%
Sphingosine kinase 2 (SPHK2, Homo sapiens, UniProt Q9NRA0); kinase activity; 1 µM: -1%

Study 4
Compound: C[C@@H]1CN(c2ccc(-c3cc(C(=O)NCCOCCOCCOCCOCCNC(=O)/C=C/c4[nH]cc(C(=O)N[C@@H](CC(N)=O)c5ccc(F)c(Cl)c5)c4-c4ccc(Cl)cc4F)ccc3F)cc2NC(=O)c2c[nH]c(=O)cc2C(F)(F)F)C[C@H](C)N1C
Observed: thermal unfolding
Method: differential scanning fluorimetry
Concentration: 5.5 µM
Reading: higher = more unfolded
Endpoint: SYPRO Orange fluorescence
WDR5: WD repeat-containing protein 5 (WDR5, Homo sapiens, UniProt P61964)
DCAF1: DDB1- and CUL4-associated factor 1 (DCAF1, Homo sapiens, UniProt Q9Y4B6)
UniProt Q9Y4B6, sequence (whole entry, looked up): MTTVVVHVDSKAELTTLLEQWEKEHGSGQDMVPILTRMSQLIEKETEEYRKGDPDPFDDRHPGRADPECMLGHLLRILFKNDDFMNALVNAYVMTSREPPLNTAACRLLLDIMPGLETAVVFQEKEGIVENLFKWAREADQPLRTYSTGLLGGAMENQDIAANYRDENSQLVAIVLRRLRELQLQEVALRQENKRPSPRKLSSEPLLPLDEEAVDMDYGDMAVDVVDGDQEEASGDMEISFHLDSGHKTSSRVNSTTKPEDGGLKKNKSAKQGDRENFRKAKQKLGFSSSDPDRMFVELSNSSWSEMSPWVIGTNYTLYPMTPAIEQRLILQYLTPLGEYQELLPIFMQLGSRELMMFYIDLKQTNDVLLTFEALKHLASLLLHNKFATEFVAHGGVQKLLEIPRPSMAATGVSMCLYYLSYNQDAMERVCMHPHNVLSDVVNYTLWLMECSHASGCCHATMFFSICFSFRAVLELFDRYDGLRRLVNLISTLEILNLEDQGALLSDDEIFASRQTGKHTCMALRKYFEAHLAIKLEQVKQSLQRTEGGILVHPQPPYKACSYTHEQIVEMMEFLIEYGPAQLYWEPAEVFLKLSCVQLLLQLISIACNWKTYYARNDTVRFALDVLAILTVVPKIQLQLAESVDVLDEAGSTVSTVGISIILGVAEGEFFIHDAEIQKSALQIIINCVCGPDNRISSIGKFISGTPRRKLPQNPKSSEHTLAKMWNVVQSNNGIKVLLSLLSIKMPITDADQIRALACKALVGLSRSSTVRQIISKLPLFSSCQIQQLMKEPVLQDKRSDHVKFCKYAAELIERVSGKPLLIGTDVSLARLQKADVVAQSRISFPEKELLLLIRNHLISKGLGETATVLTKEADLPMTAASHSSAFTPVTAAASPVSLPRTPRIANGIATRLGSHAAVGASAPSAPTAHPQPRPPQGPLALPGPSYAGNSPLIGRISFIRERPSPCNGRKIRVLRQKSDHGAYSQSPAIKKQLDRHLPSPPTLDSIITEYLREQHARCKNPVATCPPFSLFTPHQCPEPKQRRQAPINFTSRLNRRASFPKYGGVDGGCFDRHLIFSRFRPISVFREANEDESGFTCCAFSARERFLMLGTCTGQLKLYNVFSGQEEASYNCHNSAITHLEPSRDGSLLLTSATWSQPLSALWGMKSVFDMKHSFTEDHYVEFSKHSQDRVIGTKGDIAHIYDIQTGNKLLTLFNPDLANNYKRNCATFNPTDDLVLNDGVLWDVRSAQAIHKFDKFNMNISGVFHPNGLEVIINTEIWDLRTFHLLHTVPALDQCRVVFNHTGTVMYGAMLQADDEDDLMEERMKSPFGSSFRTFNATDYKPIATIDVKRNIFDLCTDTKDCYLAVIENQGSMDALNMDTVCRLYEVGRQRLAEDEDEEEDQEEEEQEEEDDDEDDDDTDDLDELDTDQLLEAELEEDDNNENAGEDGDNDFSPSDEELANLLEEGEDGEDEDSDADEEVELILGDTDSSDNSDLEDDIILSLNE
WDR5; 29.6 °C: 12700 a.u.
DCAF1; 51.2 °C: 16200 a.u.
WDR5; 46.2 °C: 15500 a.u.
DCAF1; 78.41 °C: 46800 a.u.
WDR5; 85.01 °C: 52300 a.u.
DCAF1; 64.81 °C: 58500 a.u.
WDR5; 43.8 °C: 15100 a.u.
WDR5; 45.4 °C: 15400 a.u.

Repeated from above (study 3):
MAP kinase-activated protein kinase 3 (MAPKAPK3, Homo sapiens, UniProt Q16644); kinase activity; 0.1 µM: 3%
Non-receptor tyrosine-protein kinase TYK2 (TYK2, Homo sapiens, UniProt P29597); kinase activity; 0.1 µM: -2%
